Results from different studies.
Compare with care: the assays were run in different laboratories. “And” joins repeats or separate records; there may be more than shown. Numbers after ± are the reported error.
lasR: Transcriptional activator protein LasR (lasR, Pseudomonas aeruginosa, UniProt P25084)
KLRK1 with ULBP6: NKG2-D type II integral membrane protein, with ULBP6 (KLRK1, Homo sapiens, UniProt P26718)
Chain of UniProt P26718 (whole entry, looked up): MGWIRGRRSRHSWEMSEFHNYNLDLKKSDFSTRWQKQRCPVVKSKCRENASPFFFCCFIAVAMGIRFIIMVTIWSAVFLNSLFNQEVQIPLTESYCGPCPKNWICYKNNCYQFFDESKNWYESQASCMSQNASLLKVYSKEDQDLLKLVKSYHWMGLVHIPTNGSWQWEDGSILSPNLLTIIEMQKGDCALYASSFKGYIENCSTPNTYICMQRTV
Chain of UniProt O43525 (whole entry, looked up): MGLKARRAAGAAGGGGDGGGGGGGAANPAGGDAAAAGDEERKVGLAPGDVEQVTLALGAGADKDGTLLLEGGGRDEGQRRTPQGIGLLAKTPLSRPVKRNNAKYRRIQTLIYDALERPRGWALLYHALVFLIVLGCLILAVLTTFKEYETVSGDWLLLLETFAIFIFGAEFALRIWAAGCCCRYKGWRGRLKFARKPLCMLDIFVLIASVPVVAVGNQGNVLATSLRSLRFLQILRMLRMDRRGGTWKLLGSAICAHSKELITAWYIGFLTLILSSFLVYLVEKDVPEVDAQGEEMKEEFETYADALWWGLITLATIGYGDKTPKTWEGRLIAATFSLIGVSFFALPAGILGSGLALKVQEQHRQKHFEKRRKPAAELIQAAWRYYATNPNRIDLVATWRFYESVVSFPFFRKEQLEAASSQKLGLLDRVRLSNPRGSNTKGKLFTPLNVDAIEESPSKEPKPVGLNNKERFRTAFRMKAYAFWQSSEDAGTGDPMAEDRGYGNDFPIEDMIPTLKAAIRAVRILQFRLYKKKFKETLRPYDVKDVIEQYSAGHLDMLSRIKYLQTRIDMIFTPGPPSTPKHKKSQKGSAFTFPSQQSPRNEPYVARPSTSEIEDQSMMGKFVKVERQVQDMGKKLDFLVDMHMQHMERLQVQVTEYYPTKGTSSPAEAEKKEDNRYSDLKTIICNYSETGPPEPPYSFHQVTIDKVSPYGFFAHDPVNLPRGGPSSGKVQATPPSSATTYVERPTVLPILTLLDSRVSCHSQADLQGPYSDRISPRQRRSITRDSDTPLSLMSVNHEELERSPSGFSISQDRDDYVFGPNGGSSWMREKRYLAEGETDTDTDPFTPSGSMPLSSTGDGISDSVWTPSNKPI
Chain of UniProt P61073 (whole entry, unmodified, looked up): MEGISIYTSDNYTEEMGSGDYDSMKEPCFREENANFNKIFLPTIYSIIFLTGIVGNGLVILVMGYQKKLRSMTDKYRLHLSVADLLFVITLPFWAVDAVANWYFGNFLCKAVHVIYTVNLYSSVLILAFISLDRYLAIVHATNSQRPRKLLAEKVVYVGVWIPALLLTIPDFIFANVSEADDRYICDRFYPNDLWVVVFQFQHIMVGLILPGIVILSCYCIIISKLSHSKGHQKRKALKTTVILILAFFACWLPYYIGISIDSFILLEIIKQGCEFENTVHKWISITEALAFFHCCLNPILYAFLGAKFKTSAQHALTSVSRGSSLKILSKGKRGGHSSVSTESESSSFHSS
Chain of UniProt Q15858 (whole entry, looked up): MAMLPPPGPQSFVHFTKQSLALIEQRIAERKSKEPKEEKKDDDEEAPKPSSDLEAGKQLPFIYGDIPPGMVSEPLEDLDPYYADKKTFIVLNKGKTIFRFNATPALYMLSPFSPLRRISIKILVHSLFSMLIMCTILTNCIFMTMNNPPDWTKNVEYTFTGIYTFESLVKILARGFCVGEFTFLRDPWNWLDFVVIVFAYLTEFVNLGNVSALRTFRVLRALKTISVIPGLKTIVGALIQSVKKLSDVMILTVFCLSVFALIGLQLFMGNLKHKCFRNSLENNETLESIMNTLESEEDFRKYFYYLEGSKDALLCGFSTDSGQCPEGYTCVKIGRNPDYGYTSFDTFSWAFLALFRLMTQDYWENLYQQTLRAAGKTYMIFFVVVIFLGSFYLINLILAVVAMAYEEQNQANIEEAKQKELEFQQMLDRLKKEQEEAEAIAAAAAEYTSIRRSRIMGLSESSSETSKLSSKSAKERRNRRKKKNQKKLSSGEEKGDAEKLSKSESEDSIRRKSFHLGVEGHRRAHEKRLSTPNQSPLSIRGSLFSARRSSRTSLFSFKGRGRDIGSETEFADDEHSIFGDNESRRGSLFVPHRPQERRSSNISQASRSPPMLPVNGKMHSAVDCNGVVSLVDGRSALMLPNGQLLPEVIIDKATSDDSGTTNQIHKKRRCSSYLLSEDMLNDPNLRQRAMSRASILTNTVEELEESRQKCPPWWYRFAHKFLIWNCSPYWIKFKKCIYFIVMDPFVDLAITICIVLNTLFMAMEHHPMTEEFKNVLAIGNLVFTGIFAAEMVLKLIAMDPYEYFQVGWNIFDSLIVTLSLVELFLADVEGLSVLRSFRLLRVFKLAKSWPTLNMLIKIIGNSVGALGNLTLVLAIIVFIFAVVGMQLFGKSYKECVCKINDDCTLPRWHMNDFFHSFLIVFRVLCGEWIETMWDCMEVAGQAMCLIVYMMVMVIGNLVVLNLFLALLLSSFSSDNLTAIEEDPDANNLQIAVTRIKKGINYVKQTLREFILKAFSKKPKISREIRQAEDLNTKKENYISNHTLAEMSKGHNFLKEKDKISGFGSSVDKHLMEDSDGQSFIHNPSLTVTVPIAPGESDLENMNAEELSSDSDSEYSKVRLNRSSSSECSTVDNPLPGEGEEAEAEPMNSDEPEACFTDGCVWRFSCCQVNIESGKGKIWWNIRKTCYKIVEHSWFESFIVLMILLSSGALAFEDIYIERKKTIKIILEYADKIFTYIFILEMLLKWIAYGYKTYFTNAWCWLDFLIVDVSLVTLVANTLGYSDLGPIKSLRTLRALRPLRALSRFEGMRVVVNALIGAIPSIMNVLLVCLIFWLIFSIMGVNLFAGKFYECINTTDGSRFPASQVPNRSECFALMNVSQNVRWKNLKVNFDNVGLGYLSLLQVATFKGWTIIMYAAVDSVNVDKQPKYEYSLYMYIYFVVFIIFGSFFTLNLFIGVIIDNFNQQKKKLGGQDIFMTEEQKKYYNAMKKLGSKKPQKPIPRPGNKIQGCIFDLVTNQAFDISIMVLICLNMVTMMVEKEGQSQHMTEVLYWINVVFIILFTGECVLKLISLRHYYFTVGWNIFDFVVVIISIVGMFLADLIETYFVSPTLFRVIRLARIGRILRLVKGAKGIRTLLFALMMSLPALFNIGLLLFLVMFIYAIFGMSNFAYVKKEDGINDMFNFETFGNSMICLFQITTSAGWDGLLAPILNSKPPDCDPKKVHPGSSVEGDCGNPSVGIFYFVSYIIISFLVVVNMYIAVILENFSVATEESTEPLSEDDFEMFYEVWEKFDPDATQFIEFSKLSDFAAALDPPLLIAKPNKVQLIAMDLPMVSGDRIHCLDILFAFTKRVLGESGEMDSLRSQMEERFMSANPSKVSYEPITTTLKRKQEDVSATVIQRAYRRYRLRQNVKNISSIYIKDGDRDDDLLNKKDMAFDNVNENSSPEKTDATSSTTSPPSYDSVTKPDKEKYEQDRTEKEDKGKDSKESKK
Chain of UniProt O43526 (whole entry, looked up): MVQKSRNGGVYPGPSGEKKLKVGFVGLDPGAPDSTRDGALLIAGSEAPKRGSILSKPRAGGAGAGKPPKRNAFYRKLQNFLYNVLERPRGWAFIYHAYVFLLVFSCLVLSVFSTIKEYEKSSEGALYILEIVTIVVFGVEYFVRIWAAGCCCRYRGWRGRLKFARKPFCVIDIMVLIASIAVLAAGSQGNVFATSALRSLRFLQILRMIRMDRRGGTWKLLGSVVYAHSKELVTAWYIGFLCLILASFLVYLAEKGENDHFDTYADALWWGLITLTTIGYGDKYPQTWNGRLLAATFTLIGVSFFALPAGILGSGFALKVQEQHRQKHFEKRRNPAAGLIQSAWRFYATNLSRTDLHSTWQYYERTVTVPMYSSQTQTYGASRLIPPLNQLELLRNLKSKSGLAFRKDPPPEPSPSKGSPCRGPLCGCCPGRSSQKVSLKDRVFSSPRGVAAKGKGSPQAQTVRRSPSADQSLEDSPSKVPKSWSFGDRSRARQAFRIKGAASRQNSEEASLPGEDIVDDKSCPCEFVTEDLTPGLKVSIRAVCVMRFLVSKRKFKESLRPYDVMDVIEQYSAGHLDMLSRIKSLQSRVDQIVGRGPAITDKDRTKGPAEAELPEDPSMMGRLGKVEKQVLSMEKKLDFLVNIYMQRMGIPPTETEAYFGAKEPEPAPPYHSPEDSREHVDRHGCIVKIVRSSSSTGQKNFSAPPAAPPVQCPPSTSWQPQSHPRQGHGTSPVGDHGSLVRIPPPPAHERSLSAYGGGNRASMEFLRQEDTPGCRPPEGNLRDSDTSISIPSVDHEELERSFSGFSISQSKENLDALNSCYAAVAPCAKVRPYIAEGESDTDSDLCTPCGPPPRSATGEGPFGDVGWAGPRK
Chain of UniProt Q5U3Y7 (whole entry, looked up): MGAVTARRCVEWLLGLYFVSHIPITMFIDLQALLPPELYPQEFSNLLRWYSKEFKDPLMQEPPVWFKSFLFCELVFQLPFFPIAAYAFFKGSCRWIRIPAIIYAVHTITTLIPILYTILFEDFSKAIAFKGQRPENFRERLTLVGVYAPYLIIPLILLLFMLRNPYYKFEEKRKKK
Chain of UniProt P56494 (whole entry, looked up): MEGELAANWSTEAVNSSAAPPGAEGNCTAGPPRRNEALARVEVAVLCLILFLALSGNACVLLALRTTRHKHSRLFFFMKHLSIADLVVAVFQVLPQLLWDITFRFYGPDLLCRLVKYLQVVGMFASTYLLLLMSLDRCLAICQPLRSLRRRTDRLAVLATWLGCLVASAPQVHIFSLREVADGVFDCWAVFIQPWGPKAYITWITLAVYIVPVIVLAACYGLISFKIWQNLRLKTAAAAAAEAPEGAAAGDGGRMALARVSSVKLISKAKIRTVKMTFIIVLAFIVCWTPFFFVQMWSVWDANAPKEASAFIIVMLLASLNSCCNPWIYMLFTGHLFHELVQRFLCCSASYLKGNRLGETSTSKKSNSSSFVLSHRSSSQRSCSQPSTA

| Structure (SMILES) | target | assay | system | setting | how to read | measurement | result |
| --- | --- | --- | --- | --- | --- | --- | --- |
| C=C(CC)C(=O)c1ccc(OCC(=O)NCCNC(=O)COc2ccc(C(=O)C(=C)CC)c(Cl)c2Cl)c(Cl)c1Cl | Glutathione S-transferase Mu 2 (Homo sapiens, UniProt P28161) | enzyme activity, inhibitor |  | no preincubation | reference: GSTP IC50 over GSTM IC50 | selectivity ratio | ~15 fold |
| O=C1CCN(CCCC(c2ccc(F)cc2)c2ccc(F)cc2)CC1 | Amyloid-beta precursor protein, amyloid-beta 1-40 oligomers (APP, Homo sapiens, UniProt P05067) | binding, STD NMR |  | highest STD |  | STD NMR signal | 4.31% |
| O=C(Cn1cc(CC2CCCCC2)nn1)N[C@H]1CCOC1=O | lasR | reporter gene, agonist | Escherichia coli, DH5α pJN105L/pSC11 | 100 µM | reference: OdDHL at same concentration | activation | 47% |
| CCCCC/C=C\C/C=C\C/C=C\C/C=C\CCCC(=O)NC(CO)C(=O)O (stereo in doubt) | Voltage-gated potassium channel, KQT; KCNQ2(Kv7.2)/KCNQ3(Kv7.3) (KCNQ3/KCNQ2, Homo sapiens, UniProt O43525+O43526) | GMAX, activator, two-electrode voltage clamp | Xenopus oocytes | 10 µM |  | increase in maximal conductance | ~50% and 53% |
| CC[C@H](C)[C@H](NC(=O)[C@H](Cc1c[nH]cn1)NC(=O)[C@H](CCCCNC(=O)[C@@H](NC(=O)[C@H](CCCCN)NC(=O)[C@H](Cc1ccccc1)NC(=O)[C@H](CCCCNC(=O)[C@H](CC(C)C)NC(=O)[C@@H]1CCCN1C(=O)[C@H](CCCCN)NC(=O)c1ccc(O[C@@H]2O[C@H](CO)[C@H](O)[C@H](O)[C@H]2O)cc1)NC(=O)[C@H](CC(C)C)NC(=O)[C@@H]1CCCN1C(=O)[C@H](CCCCN)NC(=O)c1ccc(O[C@@H]2O[C@H](CO)[C@H](O)[C@H](O)[C@H]2O)cc1)[C@@H](C)CC)NC(=O)[C@@H](NC(=O)[C@H](CCCCN)NC(=O)[C@H](Cc1ccccc1)NC(=O)[C@H](CCCCNC(=O)[C@H](CC(C)C)NC(=O)[C@@H]1CCCN1C(=O)[C@H](CCCCN)NC(=O)c1ccc(O[C@@H]2O[C@H](CO)[C@H](O)[C@H](O)[C@H]2O)cc1)NC(=O)[C@H](CC(C)C)NC(=O)[C@@H]1CCCN1C(=O)[C@H](CCCCN)NC(=O)c1ccc(O[C@@H]2O[C@H](CO)[C@H](O)[C@H](O)[C@H]2O)cc1)[C@@H](C)CC)C(N)=O | PA-I galactophilic lectin (lecA, Pseudomonas aeruginosa, UniProt Q05097) | binding, isothermal titration calorimetry |  | divided by galactoside copies | reference: monovalent galactoside KD over ligand KD | relative potency per galactoside | 300 |
| COP(=O)(O)O | Alkaline phosphatase PafA (pafA, Elizabethkingia meningoseptica, UniProt Q9KJX5, K162A) |  | Chryseobacterium meningosepticum | pH 8.0 | reference: wild type over mutant kcat/KM | relative catalytic efficiency | 4.7e+06 |
| CC[C@H](C)[C@@H]1NC(=O)[C@H](Cc2ccc(O)cc2)NC(=O)[C@@H](N)CSSC[C@@H](C(=O)N2CCC[C@H]2C(=O)N[C@@H](CC(C)C)C(=O)NCC(N)=O)NC(=O)[C@H](CC(N)=O)NC(=O)[C@H](CCC(N)=O)NC1=O | Oxytocin receptor (Macaca mulatta, UniProt P56494) | Ca2+ mobilisation, agonist | CHO cells |  |  | Emax | 4090 RFU |
| CC(C)C[C@@H](N)C(=O)NCC(=O)N[C@H](C)C(=O)N[C@H](CO)C(=O)N[C@H](Cc1c[nH]c2ccccc12)C(=O)N[C@H](Cc1c[nH]cn1)C(=O)N[C@H](CCCNC(=N)N)C(=O)N1CCC[C@@H]1C(=O)N[C@H](CC(=O)O)C(=O)N[C@H](CCCCN)C(=O)N[C@H](CCCCN)C(=O)N[C@H](CCCNC(=N)N)C(=O)NCCCCCC(=O)N[C@@H](CCCCN)C(=O)N[C@@H](CCCNC(=N)N)C(=O)N[C@@H](CCCCN)C(=O)N[C@H](C(=O)N[C@@H](CC(N)=O)C(=O)N[C@@H](CC(N)=O)C(=O)N[C@@H](CC(N)=O)C(=O)N1CCC[C@H]1C(=O)N[C@@H](CCCNC(=N)N)C(=O)N[C@H](C(=O)N[C@@H](CS)C(N)=O)[C@@H](C)O)[C@@H](C)O | C-X-C chemokine receptor type 4 (CXCR4, Homo sapiens, UniProt P61073, Y116A) | 12G5 antibody binding |  | 200 nM, mutant Y116A | reference: wild type | binding affinity change | decreased |
| C/C(=N\OCCCN1CCCCC1)c1ccc(C(F)(F)F)cc1 | Sigma intracellular receptor 2 (Tmem97, Rattus norvegicus, UniProt Q5U3Y7) | binding, [3H]-DTG radioligand binding | rat brain homogenate |  | reference: Ki over sigma-1 Ki | selectivity ratio | 196 fold |
| CC(C)C[C@H](NC(=O)[C@@H](N)Cc1ccccc1)C(=O)O | Amyloid-beta precursor protein, Aβ40 (APP, Homo sapiens, UniProt P05067) | binding, ion mobility MS, item: Aβ trimer |  | concentration not given |  | trimer bound | 50 ± 20% |
| C[n+]1ccc(C(=O)NC2CCC3(O)C4Cc5ccc(O)c6c5C3(CC[N+]4(C)CC3CC3)C2O6)cc1 (stereo not drawn) | Delta-type opioid receptor (Oprd1, Mus musculus, UniProt P32300) |  |  |  | reference: Ki delta over Ki mu | selectivity ratio | 349 |
| O=C(N[C@H]1CCOC1=O)c1ccc(-n2cc(C3CC3)nn2)cc1 | lasR | reporter gene, agonist | Escherichia coli, DH5α pJN105L/pSC11 | 100 µM | reference: OdDHL at same concentration | activation | 0% |
| C[C@]1(COC(=O)c2ccc(O)c(O)c2)[C@H](C(=O)O)N2C(=O)/C(=C/c3ccccn3)[C@H]2S1(=O)=O | Beta-lactamase (ampC, Pseudomonas aeruginosa, UniProt P24735) | enzyme activity, inhibitor, absorbance |  |  |  | kinact | 0.032 s⁻¹ |
| Cc1cccc([C@H](NC(=O)c2cnccc2-c2ccc(C(F)(F)F)cc2)C(=O)N(C)C)c1 | NKG2-D type II integral membrane protein, with MICA (KLRK1, Homo sapiens, UniProt P26718) | ligand binding, inhibitor, TR-FRET | HEK293 expressing NKG2D and DAP10 | added: MICA-Alexa647 | reference: positive control | maximum inhibition | 101% |
| CC(C)P(=[Se])(NP(=[Se])(C(C)C)C(C)C)C(C)C | Alpha-amylase (Bacillus subtilis, UniProt P00691) | binding, FRET |  | 298 K |  | energy transfer efficiency | 45.2% |
| CC(C)C[C@@H](N)C(=O)NCC(=O)N[C@H](C)C(=O)N[C@H](CO)C(=O)N[C@H](Cc1c[nH]c2ccccc12)C(=O)N[C@H](Cc1c[nH]cn1)C(=O)N[C@H](CCCNC(=N)N)C(=O)N1CCC[C@@H]1C(=O)N[C@H](CC(=O)O)C(=O)N[C@H](CCCCN)C(=O)N[C@H](CSSC[C@@H](NC(=O)[C@@H](CCCCN)NC(=O)[C@@H](CC(=O)O)NC(=O)[C@H]1CCCN1C(=O)[C@@H](CCCNC(=N)N)NC(=O)[C@@H](Cc1c[nH]cn1)NC(=O)[C@@H](Cc1c[nH]c2ccccc12)NC(=O)[C@@H](CO)NC(=O)[C@@H](C)NC(=O)CNC(=O)[C@H](N)CC(C)C)C(=O)N[C@H](C)C(=O)N[C@H](CC(C)C)C(=O)NCC(=O)N[C@H](Cc1ccc(O)cc1)C(=O)N[C@H](CCC(N)=O)C(=O)N[C@H](CCCCN)C(=O)N[C@H](CCCNC(=N)N)C(=O)N1CCC[C@@H]1C(=O)N[C@H](CC(C)C)C(=O)N1CCC[C@@H]1C(N)=O)C(=O)N[C@H](C)C(=O)N[C@H](CC(C)C)C(=O)NCC(=O)N[C@H](Cc1ccc(O)cc1)C(=O)N[C@H](CCC(N)=O)C(=O)N[C@H](CCCCN)C(=O)N[C@H](CCCNC(=N)N)C(=O)N1CCC[C@@H]1C(=O)N[C@H](CC(C)C)C(=O)N1CCC[C@@H]1C(N)=O | C-X-C chemokine receptor type 4 (CXCR4, Homo sapiens, UniProt P61073, D171A) |  | 293 cells | 300 nM, added: 12G5 antibody 5 µg/mL | reference: wild type | binding decrease | 60% |
| CN(C)C(=O)[C@@H](NC(=O)c1cc(-c2ccnn2C)ccc1-c1ccc(C(F)(F)F)cc1)c1cccc(C(F)(F)F)c1 | KLRK1 with ULBP6 | ligand binding, inhibitor, TR-FRET | HEK293 expressing NKG2D and DAP10 | added: ULBP6-AF647 | reference: positive control | maximum inhibition | 101% |
| CCN(Cc1ccccc1)C(=O)CCc1nc(CN2CCN(C(=O)Cc3ccc(OC)c(OC)c3)CC2)no1 | Sodium channel protein type 9 subunit alpha (SCN9A, Homo sapiens, UniProt Q15858) | sodium current, whole-cell patch clamp | HEK293, stable | 10 µM |  | inactivation V1/2 | -75.4 mV |
| CN(C)C(=O)[C@@H](NC(=O)c1cnccc1-c1ccc(C(F)(F)F)cc1)c1cc(C(F)(F)F)cc(C(F)(F)F)c1 | KLRK1 with ULBP6 | ligand binding, inhibitor, TR-FRET | HEK293 expressing NKG2D and DAP10 | added: ULBP6-AF647 | reference: positive control | maximum inhibition | 103% |
| CC[C@H](C)[C@H](NC(=O)[C@H](CCC(N)=O)NC(=O)[C@H](Cc1ccc(O)cc1)NC(=O)[C@H](CCC(N)=O)NC(=O)[C@@H]1CCCN1C(=O)[C@H](CCSC)NC(=O)[C@@H](N)Cc1ccc(O)cc1)C(=O)O | UDP-N-acetylglucosamine--peptide N-acetylglucosaminyltransferase 110 kDa subunit (OGT, Homo sapiens, UniProt O15294) | enzyme activity, fluorescence activity |  |  |  | highest concentration without inhibition | > 100 µM |
| CCOC(=O)/C=C/[C@H](C[C@@H]1CCNC1=O)NC(=O)[C@H](Cc1ccccc1)NC(=O)[C@H](COC(C)(C)C)NC(=O)OCc1ccccc1 | Genome polyprotein, 3C protease (Human hepatitis A virus genotype IB, UniProt P08617) | protease activity, cell-based reporter | hepatitis A virus |  |  | FLuc reporter expression | no effect |

Some of these lines once more:
| Structure (SMILES) | target | assay | system | setting | how to read | measurement | result |
| --- | --- | --- | --- | --- | --- | --- | --- |
| COP(=O)(O)O | Alkaline phosphatase PafA (pafA, Elizabethkingia meningoseptica, UniProt Q9KJX5, K162A) |  | Chryseobacterium meningosepticum | pH 8.0 | reference: wild type over mutant kcat/KM | relative catalytic efficiency | 4.7e+06 |
| CCN(Cc1ccccc1)C(=O)CCc1nc(CN2CCN(C(=O)Cc3ccc(OC)c(OC)c3)CC2)no1 | Sodium channel protein type 9 subunit alpha (SCN9A, Homo sapiens, UniProt Q15858) | sodium current, whole-cell patch clamp | HEK293, stable | 10 µM |  | inactivation V1/2 | -75.4 mV |
| C[n+]1ccc(C(=O)NC2CCC3(O)C4Cc5ccc(O)c6c5C3(CC[N+]4(C)CC3CC3)C2O6)cc1 (stereo not drawn) | Delta-type opioid receptor (Oprd1, Mus musculus, UniProt P32300) |  |  |  | reference: Ki delta over Ki mu | selectivity ratio | 349 |
| C[C@]1(COC(=O)c2ccc(O)c(O)c2)[C@H](C(=O)O)N2C(=O)/C(=C/c3ccccn3)[C@H]2S1(=O)=O | Beta-lactamase (ampC, Pseudomonas aeruginosa, UniProt P24735) | enzyme activity, inhibitor, absorbance |  |  |  | kinact | 0.032 s⁻¹ |
